Measured values collected from several papers.
Numbered parts are unrelated; each lists some results of a single study. Substitutions count along the parent as printed.

Sample 1 — technique: RNA Bind-n-Seq; form: RNA; medium: in vitro; concentration: 365 nM; baseline: no-protein control; direction: higher = stronger binding
Target: RNA binding protein fox-1 homolog 2, RRM domain, GST-SBP tag (RBFOX2, Homo sapiens, UniProt O43251-10, residues 100-194)
Notes: natural RNA segment, single round, ends assumed
All sequences stand within: GGGAGUUCUACAGUCCGACGAUC … UGGAAUUCUCGGGUGCCAA
Target sequence (chain): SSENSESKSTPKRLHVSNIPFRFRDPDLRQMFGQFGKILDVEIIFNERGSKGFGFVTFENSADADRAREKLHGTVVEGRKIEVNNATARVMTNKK
Strand | RBNS enrichment (R)
UUGUUGUCCUUCUUAAUCUCAUUAUACUUCAUCAUGUUGAGUUUCCCAACAUGUGAUGACUAUUCUUGGUUGUCAUCUUGAAUACUACUAGGUGAUUAGGCCUAUUGGUA | 0.236
CAGGGACAGAAGUACCAUCCACUUUCAAGUCCAGCUCCUUCCUAAGAGAUUCUUCCACCUUACUCUGCAGCUGCCUCUGGAAGAACUUUGGGCUGCUGGGGCUGAGCUGU | 0.476
CCCGUGGGUCAAGCAUUUGUCUUGACUUGCUUUCCUCCCGGGUCUCCAGCCUCCGACCCCUCGCCCCAUGAAGGAGCUGGCAGGUGGAAAUAAACAACAACUUUAUUAAA | 0.303
UUUUCAGAGUCAAACAUCAUUCUGCCUGUGUUGGGGGCCAGGUGUGUCACACAAGCAUCUCAAAGUCAAAAGCCAUCUGGGGCUGCUGCUUCUGUUUCUCAGGCUCUGGG | 0.629
CUUCUUCCUAACAGCAUUUUAUGCCUUUUAUUCCACAUUAAAUGGGAAUUGUGCCUACUUAGGAGUGCCCCUCCAAUUAAUUACAUGUGUCCAAGAAUAAUCCAAGCUAG | 0.904
UAUAAAUCCUCAUAGCGGAACAUUUCUCAGGGCAAAGGAACCUGGCUCAUUUGAAGAUUAAUGUUCCAUGCCUUUGUGGUCAAAGGGUCAGCACUUAACACAGGAAAAAA | 1.53
GAGGGUGCUGGAAGGGGUUGGUGGUGAUUGUGGGUGUCUAAACUGGAAUUCUUUUGUCCAUGUUAAAAAGACUUGAAAACUGAAACGUCACGGUACAGUGUUAAUUCACG | 0.943
AGUGGUGUUUCUACUCCAGUGAGGUACUUUCUACCAUGGUGUGCCUUUUGCUGUGAGUGACUUAACAGUGCAGGUUCUUGUUGCCUUCACUGUUAACCCUGAGAGCACAU | 0.227

Sample 2 — target: CCND1, cyclin fold, Cln2 fusion (human); technique: yeast growth competition, sequencing; medium: yeast; notes: weak parent motif; baseline: not given; direction: higher = stronger binding
Parent: CDC6 docking peptide (human); TLKGRRLVFDNQL; partner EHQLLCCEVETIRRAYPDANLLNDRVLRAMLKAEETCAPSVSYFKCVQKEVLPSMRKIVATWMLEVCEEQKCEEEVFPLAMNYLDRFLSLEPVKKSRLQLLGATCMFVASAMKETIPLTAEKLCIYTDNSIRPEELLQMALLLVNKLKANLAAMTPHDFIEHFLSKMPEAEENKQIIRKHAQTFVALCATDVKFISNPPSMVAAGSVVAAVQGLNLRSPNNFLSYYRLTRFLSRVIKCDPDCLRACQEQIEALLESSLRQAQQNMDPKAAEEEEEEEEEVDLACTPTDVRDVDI
Change | normalised enrichment score
TLKGRRGVFDNQL [L7G] | 0.0358
TLKGRRLVFNNQL [D10N] | 0.601
TLKGRRLVFDNQS [L13S] | 0.465
TLSGRRLVFDNQL [K3S] | 0.642
TLVGRRLVFDNQL [K3V] | 1.69
TLKGMRLVFDNQL [R5M] | 0.0876
TLKRRRLVFDNQL [G4R] | -0.0155
TLKGGRLVFDNQL [R5G] | 0.122
TFKGRRLVFDNQL [L2F] | 0.452
TLKGSRLVFDNQL [R5S] | 0.976
TIKGRRLVFDNQL [L2I] | 0.623
TVKGRRLVFDNQL [L2V] | 0.817
TLKGHRLVFDNQL [R5H] | -0.39
TLKGRRWVFDNQL [L7W] | 0.377
SLKGRRLVFDNQL [T1S] | 0.297

Sample 3 — target: ATF1, bZIP domain (human); technique: DHFR protein complementation; medium: yeast; baseline: wild-type JUN-FOS pair; direction: higher = stronger binding
Notes: single substitutions, most at no-binding floor
Parent: JUN, bZIP domain (human); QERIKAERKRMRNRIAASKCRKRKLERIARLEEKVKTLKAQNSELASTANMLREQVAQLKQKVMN; partner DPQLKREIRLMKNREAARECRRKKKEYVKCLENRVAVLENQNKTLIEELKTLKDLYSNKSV
Change | binding fitness
N42P | -1.55 natural log
A46Q | -1.26 natural log
R30A | -1.36 natural log
V35N | -1.55 natural log
K36D | -1.32 natural log
A40F | -1.5 natural log
L59Q | -1.18 natural log
N42L | -1.47 natural log
E33D | -1.5 natural log
A46C | -1.46 natural log
A29C | -1.4 natural log
K34W | -1.43 natural log
Q55T | -1.51 natural log
E32R | -1.55 natural log
T37E | -1.42 natural log
L38S | -1.53 natural log
A49L | -1.46 natural log
S47K | -1.35 natural log

Sample 4 — technique: competition protein-binding microarray; form: double-stranded DNA, one strand shown; medium: in vitro; concentration: 2 µM; added: Pho4 competitor, 0.05 µM; direction: higher = stronger binding; all sequences stand within: … GTCTTGATTCGCTTGACGCTGCTG
Target: Centromere-binding protein 1, full length, His-tagged (CBF1, Saccharomyces cerevisiae, UniProt P17106, residues 1-351)
Chain of UniProt P17106 (whole entry, looked up): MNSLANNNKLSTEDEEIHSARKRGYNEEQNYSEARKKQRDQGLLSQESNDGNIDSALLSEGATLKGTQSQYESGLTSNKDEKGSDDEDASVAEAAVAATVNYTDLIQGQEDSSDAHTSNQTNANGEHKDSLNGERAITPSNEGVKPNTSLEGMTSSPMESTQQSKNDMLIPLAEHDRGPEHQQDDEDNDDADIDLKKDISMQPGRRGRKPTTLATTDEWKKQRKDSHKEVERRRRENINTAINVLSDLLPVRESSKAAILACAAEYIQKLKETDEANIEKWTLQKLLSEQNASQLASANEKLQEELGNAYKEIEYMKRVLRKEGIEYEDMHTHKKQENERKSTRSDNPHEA
Notes: whole 60-bp probe, lowest competitor level
Strand | fluorescence intensity [a.u.]
CATACCCAACCTTTTCACGTGTTATAAGATATTTGT | 1160
CCTTGTCAGAGTCCGCACGGCCTTTTACTCTGGTGC | 64.3
CGTCCTAGTGATTTTCACGTGGTATCCATGAGGAAG | 1020
CTTCTGTAAATTTGGGAAGTGGGTGGACGCGCCCCG | 82.4
GGGATCGAAAGAAGGGGCGTGGTGAGAAGGGTAACG | 78.7
CGACCCAGTTGTACGAGGCAACAGGCCCGACTTCAC | 69.2
GCTGCCAAGAAAAAGCACGTGTAACAATGGAATGAT | 1970
AGGAATGTTAATTCGCTCGTGCGGACTAATTTTTCC | 115
AGCGAACTCGCTCGAAGCGTGCCGACCAGCTCCCGG | 57.5
CTTTCCCGATCTTGTCACTCAACTTTAGCACATTTG | 87.7
TCTCACCCATTCCGTCACGCTTTGGTTGCCGGTATT | 117
AACTTCAACACCATCACCGTGAAGAACATAGAATTT | 87

Sample 5 — technique: protein binding microarray; form: double-stranded DNA, one strand shown; medium: in vitro; concentration: not given; baseline: not given; direction: higher = stronger binding
Target: Histone acetyltransferase KAT6A, both winged helices, GST fusion (KAT6A, Homo sapiens, UniProt Q92794, residues 1-181)
Notes: 8-mer, flanks averaged, mean of 2 arrays, mostly near background
Residues (chain): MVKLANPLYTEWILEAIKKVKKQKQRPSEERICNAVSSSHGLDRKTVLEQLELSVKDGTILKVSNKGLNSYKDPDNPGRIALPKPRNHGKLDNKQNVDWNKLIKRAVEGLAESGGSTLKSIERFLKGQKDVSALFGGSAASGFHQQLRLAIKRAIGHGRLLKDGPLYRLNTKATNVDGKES
Strand | E-score
AGTTGCTG | 0.0453
CAAATTCA | -0.00448
ATGTTACG | 0.121
GATAATAC | -0.201
GAAGCGGC | 0.275
GGCAGGTA | -0.0106
AAAGGACA | -0.205
AACTACTC | 0.00013
CACTACGG | 0.156
CACGCCTC | -0.0179
CAAACCGA | 0.0245
CTGCGCTA | 0.168
GCTAAGAA | -0.151

Sample 6 — technique: universal PBM; form: double-stranded DNA, one strand shown; medium: in vitro; concentration: not given; direction: higher = stronger binding
Target: Sal-like protein 4, full length isoform B (SALL4, Homo sapiens, UniProt Q9UJQ4-2, residues 1-616)
Notes: 8-mer, flanks averaged, mean of replicates
Target sequence (chain): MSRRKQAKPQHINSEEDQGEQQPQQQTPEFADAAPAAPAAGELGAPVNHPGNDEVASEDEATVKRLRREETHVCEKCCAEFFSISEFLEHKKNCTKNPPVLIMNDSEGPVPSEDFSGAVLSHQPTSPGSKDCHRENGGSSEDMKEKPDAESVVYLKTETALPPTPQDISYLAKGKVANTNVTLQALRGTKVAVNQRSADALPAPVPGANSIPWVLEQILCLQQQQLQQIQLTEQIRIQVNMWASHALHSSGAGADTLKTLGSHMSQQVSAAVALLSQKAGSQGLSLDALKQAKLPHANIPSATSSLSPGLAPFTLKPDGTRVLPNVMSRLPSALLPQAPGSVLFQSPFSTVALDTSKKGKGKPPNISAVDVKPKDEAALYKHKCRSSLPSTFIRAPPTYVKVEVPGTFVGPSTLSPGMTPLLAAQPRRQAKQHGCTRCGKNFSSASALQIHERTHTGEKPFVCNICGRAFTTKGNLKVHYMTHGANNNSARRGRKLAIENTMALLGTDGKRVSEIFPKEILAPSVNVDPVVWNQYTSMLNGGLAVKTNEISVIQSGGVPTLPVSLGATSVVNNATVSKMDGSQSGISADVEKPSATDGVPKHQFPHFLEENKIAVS
Strand | E-score
CGACATCG | -0.123
CTTAGGCA | -0.16
ATTCAGGA | 0.0995
AGATGTCA | 0.0384
AGAAGAAA | 0.111
ATAGCGCA | 0.192
CAAGCCCG | -0.31
GAACTGGA | -0.0321
CTCAGCGA | 0.00344
ACTTAGGC | -0.259
CAGAGTAG | -0.133

Sample 7 — technique: protein-binding microarray; form: double-stranded DNA, one strand shown; medium: in vitro; concentration: 940 nM top; notes: 60-bp whole probe; added: salmon DNA 0.4 mg/ml; baseline: random background probes; direction: higher = stronger binding; all sequences stand within: GCCTAGCAC … GTCTTGATTCGCTTGACGCTGCTG
Target: Interferon regulatory factor 5, full length, phosphomimetic (IRF5, Homo sapiens, UniProt Q13568-2, residues 1-514, S451D/S453D/S456D/S462D)
Strand | fitted relative affinity
TTAGATATCATTTTCGATTAGTGCTAG | 1.62 z-score
GCAGATTGGGTTTCAGGGCTGTGCTAG | 0.404 z-score
TTAGATATCGGGTATCGAATAGTGCTA | 1.04 z-score
TTAGGTATCGGTATCAGTTAGTGCTAG | 9.76 z-score
TCATAATTCACTATTACACTGTGCTAG | 0.744 z-score
TCATTTACAGGTTCTCTTACTGTGCTA | 1.19 z-score
GTAGGTATCGGGACTGGGTTAGTGCTA | 4.19 z-score
CTTGCTTTATGTGTAGGTCTGTGCTAG | -0.0953 z-score
TTAGGCCTCCTTATCCTTTAGTGCTAG | 0.125 z-score
GACGATTTCCGACTGGAGACGTGCTAG | 0.249 z-score
GACGGTTTGGGACTGGGGACGTGCTAG | -0.499 z-score
TTAGTACTGAGACTGGATTAGTGCTAG | -0.122 z-score
GACGGTTTCGGGACTGGGGCCGTGCTA | 6.78 z-score
TTAGGTCTCCTTCTCCTTAAGTGCTAG | 0.492 z-score

For quick reference, copied from above (sample 6):
Strand | E-score
CGACATCG | -0.123
CTTAGGCA | -0.16
ATTCAGGA | 0.0995
AGATGTCA | 0.0384
AGAAGAAA | 0.111
ATAGCGCA | 0.192
CAAGCCCG | -0.31
GAACTGGA | -0.0321
CTCAGCGA | 0.00344
ACTTAGGC | -0.259
CAGAGTAG | -0.133
